Measured values collected from several papers.
Each numbered part is a random draw from the data of one study; scales do not carry over between parts. Changes are numbered by the printed parent chain.

Sample 1
Target: Ras GTPase-activating protein-binding protein 1, C-terminal RGG region (G3BP1, Homo sapiens, UniProt Q13283)
Sequence of UniProt Q13283 (whole entry, looked up): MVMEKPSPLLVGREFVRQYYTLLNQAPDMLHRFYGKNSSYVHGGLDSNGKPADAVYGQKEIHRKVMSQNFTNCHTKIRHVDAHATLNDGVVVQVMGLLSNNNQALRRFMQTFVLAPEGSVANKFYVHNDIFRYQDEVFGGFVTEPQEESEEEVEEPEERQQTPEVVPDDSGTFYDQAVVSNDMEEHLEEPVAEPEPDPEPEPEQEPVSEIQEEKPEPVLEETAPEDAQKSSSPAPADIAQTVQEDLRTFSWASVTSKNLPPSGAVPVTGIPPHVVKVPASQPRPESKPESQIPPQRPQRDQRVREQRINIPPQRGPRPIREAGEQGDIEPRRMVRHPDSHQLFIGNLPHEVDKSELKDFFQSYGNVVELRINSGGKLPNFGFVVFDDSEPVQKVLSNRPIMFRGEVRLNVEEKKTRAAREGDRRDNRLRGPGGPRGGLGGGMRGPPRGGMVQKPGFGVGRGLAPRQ
Method: RNA Bind-n-Seq
Form: RNA
Medium: in vitro
Concentration: 1 µM
Notes: whole 134-nt RNA, ends assumed
Added: 150 mM KCl
Reference: input library
Direction: higher = stronger binding
Quantity: log2 enrichment
All sequences stand within: GGGAGUUCUACAGUCCGACGAUC … UGGAAUUCUCGGGUGUCAAGG
UUCAUUCCCAAGGGAGGCCAUGUCUGGAGAUAGACCUUGAAUUUAAUAAAUUUUAGGCACUAUACCAUUUCAGUGGAGAAAAUUGUUGGG: -2.13
UGGCCCUGGUGGCAUGCGGGGAGGAAGAGGUGGCCUUAUGGAUCGUGGUGGUCCCGGUGGAAUGUUCAGAGGUGGCCGUGGUGGAGACAG: 2.47
CAAGUCCUGUGCUACACAUCGUAUGUACCGAAUCGGUUUUGGGUUUUGGUUUUGGGAAAGUAUUAUGUUACGCCGUUCGGAUCUGCACUU: -1.6
UCCUGUGCUACACAUCGUAUGUACCGAAUCGGGGAAAAAAAGGGGAAAGGGGUUUGGGGAAAGUAUUAUGUUACGCCGUUCGGAUCUGCA: 2.54
UGGAGCACAGGGCGAGCUCUCCUCCGCCCUGCAGCCUCAGGUAAGGAUCCGGACCUUCACUGCUGCCCCAACUGGGGCUCCUCAGCUCGG: -0.83
CACAGACAACACGCACCCACACAGACACAGAGGGAAGGGGUUGGGAUGGGGACAGGGUGCACCGCAGGGCGGGGUAGGACCCCAGCCCCU: -0.589
CCUGUGCUACACAUCGUAUGUACCGAAUCGGGUUUUUGGGAAAAAAAGGGUUUUUUUGGGAAAGUAUUAUGUUACGCCGUUCGGAUCUGC: -1.88
ACCAUGCAGGUGGGCAUCUUUGGGAAGUGGGGCAAGGGGGGGAUAGGGAGGGAAAUAACACUUUGGGAACAGGUGGUCCCAGGUCGUUUC: -1.5
CACAGACAACACGCACCCACACAGACACAGAGGGAAGGGGUUGGGAUGGGGACAGGGUGAAAAGCAGGGCGGGGUAGGACCCCAGCCCCU: -0.378

Sample 2
Target: ABI1, truncated, D143A, DHFR fusion (Arabidopsis thaliana)
Method: DHFR PCA, deep sequencing
Medium: yeast
Notes: methotrexate growth selection, single substitutions
Added: (+)-ABA 0.39 µM
Reference: wild-type fitted maximum
Direction: higher = stronger binding
Quantity: relative binding score
Starting sequence: PYL1, truncated, DHFR fusion (Arabidopsis thaliana); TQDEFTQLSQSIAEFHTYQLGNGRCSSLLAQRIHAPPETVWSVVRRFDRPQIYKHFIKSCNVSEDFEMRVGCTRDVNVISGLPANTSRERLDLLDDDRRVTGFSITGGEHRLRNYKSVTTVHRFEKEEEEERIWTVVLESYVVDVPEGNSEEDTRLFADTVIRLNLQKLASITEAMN; partner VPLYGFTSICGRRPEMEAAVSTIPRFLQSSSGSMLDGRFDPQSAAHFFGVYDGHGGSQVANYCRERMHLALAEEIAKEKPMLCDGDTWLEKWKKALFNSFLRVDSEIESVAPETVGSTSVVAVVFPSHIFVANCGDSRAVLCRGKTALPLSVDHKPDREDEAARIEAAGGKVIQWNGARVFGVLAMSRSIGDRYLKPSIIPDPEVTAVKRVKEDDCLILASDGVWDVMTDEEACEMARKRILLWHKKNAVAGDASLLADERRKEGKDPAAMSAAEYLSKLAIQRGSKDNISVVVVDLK
F47L: -7.65%
H110P: 67.2%
M68A: 9.46%
V76S: -8.41%
A170M: 20.8%
F56I: 1.76%
E128F: 29.3%
R24H: 12.2%

Sample 3
Target: CCNB2, cyclin fold, Cln2 fusion (human)
Method: yeast growth competition, sequencing
Medium: yeast
Notes: weak parent motif
Reference: not given
Direction: higher = stronger binding
Quantity: normalised enrichment score
Starting sequence: ORC1 docking peptide (human); PRARKRLELGNLG
PRARKRNELGNLG [L7N]: -0.0104
DRARKRLELGNLG [P1D]: 0.728
PRARKRLELGNLT [G13T]: 0.503
PRARKNLELGNLG [R6N]: 0.361
PRWRKRLELGNLG [A3W]: 0.301
PRARKRLELGNAG [L12A]: 0.522
VRARKRLELGNLG [P1V]: 0.128
PRAMKRLELGNLG [R4M]: 0.265
PRARKRLILGNLG [E8I]: 0.509
PRARKRLELGFLG [N11F]: 0.7
PRAYKRLELGNLG [R4Y]: 0.266
PRARKRLSLGNLG [E8S]: 0.0775
PRARARAELGNLG [K5A L7A]: 0.334
PRARKRLELGTLG [N11T]: 0.766
PRARKRPELGNLG [L7P]: -0.241
PRARPRLELGNLG [K5P]: 0.377
PRARKRLELGNLA [G13A]: -0.0684
PRARKRGELGNLG [L7G]: -0.0601

Sample 4
Target: Histone acetyltransferase KAT6A, winged helix 1, GST fusion (KAT6A, Homo sapiens, UniProt Q92794, residues 1-85)
Method: protein binding microarray
Form: double-stranded DNA, one strand shown
Medium: in vitro
Concentration: not given
Notes: 8-mer, flanks averaged, mean of 2 arrays, mostly near background
Reference: not given
Direction: higher = stronger binding
Quantity: E-score
Residues (chain): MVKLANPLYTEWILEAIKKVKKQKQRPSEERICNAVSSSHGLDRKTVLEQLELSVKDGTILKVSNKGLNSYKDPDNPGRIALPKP
AGTGCCCC: 0.115
GGTATCGA: 0.101
ACTCCCCT: -0.00813
GCACTGCA: -0.177
ATTACCGG: 0.314
AATCTGCC: -0.0184
CAGAAATC: -0.183
AGTCTAGC: -0.0667
AGTCAAAA: -0.2
AGTAGTCC: 0.192
GGCTGATA: 0.0888
CTATAGCA: 0.095
CGACTGTC: 0.0305
ATCTGCAG: -0.167
GACGCTAC: 0.182
GCCTTCAA: -0.0367
CCTGCGAA: -0.14
AGGTGATG: -0.0991
CTCAAGTC: -0.172
AGGTTATG: -0.0965

Sample 5
Target: Prothrombin, mature alpha-thrombin (F2, Homo sapiens, UniProt P00734)
Method: aptamer microarray, sandwich
Form: DNA with 2'F-ANA
Medium: in vitro
Concentration: 200 nM
Notes: whole 15-mer aptamer, many near background
Added: Cy3 exosite-II aptamer, 400 nM
Direction: higher = stronger binding
Quantity: mean fluorescence intensity
Oligonucleotide: GGTTGGTGTGGTTGG
2'F-ANA at 1 3 9 10 12 14: 61.7 a.u.
2'F-ANA at 1 2 4 5 7 11 12 13 14 15: 47.4 a.u.
2'F-ANA at 1 2 4 6 9 11 13 15: 57.8 a.u.
2'F-ANA at 3 5 8: 149 a.u.
2'F-ANA at 1 2 8 9 10 12 15: 72.7 a.u.
2'F-ANA at 2 3 10 13 14 15: 283 a.u.
2'F-ANA at 1 2 4 5 8 9 10 11 12 13 14 15: 52.7 a.u.
2'F-ANA at 3 5 9 11 12 13 15: 179 a.u.
2'F-ANA at 2 4 6 9 11 12 13 15: 254 a.u.
2'F-ANA at 1 2 3 5 6 9 15: 61 a.u.
2'F-ANA at 1 4 8 9 11 14 15: 77.9 a.u.
2'F-ANA at 2 5 6 7 12 13 15: 100 a.u.
2'F-ANA at 1 3 6 7 9 10 12 13: 97.9 a.u.
2'F-ANA at 6 7 8 9: 565 a.u.
2'F-ANA at 2 3 4 8 11 14: 354 a.u.
2'F-ANA at 4 5 6 9 13: 60.9 a.u.
2'F-ANA at 1 3 4 5 8 9 10 13 14: 48.2 a.u.
2'F-ANA at 2 5 6 8 10 12 15: 64.4 a.u.
2'F-ANA at 1 5 7 8 10 12 13 14: 46.2 a.u.
2'F-ANA at 3 11 14: 722 a.u.
2'F-ANA at 4 5 6 7 9 10 13 15: 48.6 a.u.
2'F-ANA at 1 4 7 8 9 13 14 15: 49.5 a.u.
2'F-ANA at 1 2 3 4 7 10 11: 55.6 a.u.

Further values, each from its own experiment
PhoQ, residues 284 288 289 292 302 303 ALSMDL
fold induction (PhoP, residues 12 14 15 18 19 LQHIR (Escherichia coli, UniProt P23836); Sort-seq, measured: YFP reporter; E. coli; PhoQ-PhoP variant library, added: 10 µM Mg2+; reference: high Mg2+ state, higher = stronger signaling): 10
